Published values collected from several papers.
Each line is one published result; not all experiments were run side by side. ± marks the error that the study gave.
B1: EEF2K (UniProt O00418); pT348; chain MADEDLIFRLEGVDGGQSPRAGHDGDSDGDSDDEEGYFICPITDDPSSNQNVNSKVNKYYSNLTKSERYSSSGSPANSFHFKEAWKHAIQKAKHMPDPWAEFHLEDIATERATRHRYNAVTGEWLDDEVLIKMASQPFGRGAMRECFRTKKLSNFLHAQQWKGASNYVAKRYIEPVDRDVYFEDVRLQMEAKLWGEEYNRHKPPKQVDIMQMCIIELKDRPGKPLFHLEHYIEGKYIKYNSNSGFVRDDNIRLTPQAFSHFTFERSGHQLIVVDIQGVGDLYTDPQIHTETGTDFGDGNLGVRGMALFFYSHACNRICESMGLAPFDLSPRERDAVNQNTKLLQSAKTILRGTEEKCGSPQVRTLSGSRPPLLRPLSENSGDENMSDVTFDSLPSSPSSATPHSQKLDHLHWPVFSDLDNMASRDHDHLDNHRESENSGDSGYPSEKRGELDDPEPREHGHSYSNRKYESDEDSLGSSGRVCVEKWNLLNSSRLHLPRASAVALEVQRLNALDLEKKIGKSILGKVHLAMVRYHEGGRFCEKGEEWDQESAVFHLEHAANLGELEAIVGLGLMYSQLPHHILADVSLKETEENKTKGFDYLLKAAEAGDRQSMILVARAFDSGQNLSPDRCQDWLEALHWYNTALEMTDCDEGGEYDGMQDEPRYMMLAREAEMLFTGGYGLEKDPQRSGDLYTQAAEAAMEAMKGRLANQYYQKAEEAWAQMEE
B2: PI4KB Q121R (Homo sapiens, UniProt Q9UBF8-2); sequence looked up; chain MGDTVVEPAPLKPTSEPTSGPPGNNGGSLLSVITEGVGELSVIDPEVAQKACQEVLEKVKLLHGGVAVSSRGTPLELVNGDGVDSEIRCLDDPPAQIREEEDEMGAAVASGTAKGARRRRRNNSAKQSWLLRLFESKLFDISMAISYLYNSKEPGVQAYIGNRLFCFRNEDVDFYLPQLLNMYIHMDEDVGDAIKPYIVHRCRQSINFSLQCALLLGAYSSDMHISTQRHSRGTKLRKLILSDELKPAHRKRELPSLSPAPDTGLSPSKRTHQRSKSDATASISLSSNLKRTASNPKVENEDEPVRLAPEREFIKSLMAIGKRLATLPTKEQKTQRLISELSLLNHKLPARVWLPTAGFDHHVVRVPHTQAVVLNSKDKAPYLIYVEVLECENFDTTSVPARIPENRIRSTRSVENLPECGITHEQRAGSFSTVPNYDNDDEAWSVDDIGELQVELPEVHTNSCDNISQFSVDSITSQESKEPVFIAAGDIRRRLSEQLAHTPTAFKRDPEDPSAVALKEPWQEKVRRIREGSPYGHLPNWRLLSVIVKCGDDLRQELLAFQVLKQLQSIWEQERVPLWIKPYKILVISADSGMIEPVVNAVSIHQVKKQSQLSLLDYFLQEHGSYTTEAFLSAQRNFVQSCAGYCLVCYLLQVKDRHNGNILLDAEGHIIHIDFGFILSSSPRNLGFETSAFKLTTEFVDVMGGLDGDMFNYYKMLMLQGLIAARKHMDKVVQIVEIMQQGSQLPCFHGSSTIRNLKERFHMSMTEEQLQLLVEQMVDGSMRSITTKLYDGFQYLTNGIM
B3: Fhl2 (Mus musculus, UniProt O70433); sequence looked up; chain MTERFDCHHCNESLYGKKYILKEENPHCVACFEELYANTCEECGTPIGCDCKDLSYKDRHWHEGCFHCSRCGSSLVDKPFAAKEEQLLCTDCYSNEYSSKCQECKKTIMPGTRKMEYKGSSWHETCFTCQRCQQPIGTKSFIPKENQNFCVPCYEKQYALQCVQCKKPITTGGVTYREQPWHKECFVCTACKKQLSGQRFTARDEFPYCLTCFCDLYAKKCAGCTNPISGLGGTKYISFEERQWHNDCFNCKKCSLSLVGRGFLTERDDILCPDCGKDI

| Molecule | tested on | test | test system | setting | scale | endpoint | value |
| --- | --- | --- | --- | --- | --- | --- | --- |
| B1 (EEF2K) | CALM1 (Homo sapiens, UniProt P0DP23) | AlphaScreen or HTRF |  |  |  | IC50 | 0.78 ± 0.044 nM |
| FGA (Homo sapiens, UniProt P02671) | NKIRAS2 (Homo sapiens, UniProt Q9NYR9) | cross-linking MS |  | with: DSSO |  | cross-linked residues | K476 to K106 |
| KERTHQQKKHSSYEDELSEVL (CHGA residues 70-90 (Bos taurus)) | PLAT mature, single-chain, DFP-inactivated (Homo sapiens) | radioligand binding | peptide | with: 100 µM peptide | reference: 125I-CgA binding without inhibitor, higher = stronger inhibition | inhibition of binding | 82% |
| ALB (Homo sapiens, UniProt P02768) | VSIG10L (Homo sapiens, UniProt Q86VR7) | cross-linking MS |  | with: DSSO |  | cross-linked residues | K223 to K171 |
| GLAQWIPQV | Jurkat T cells expressing 1G4 TCR | NFAT-eGFP reporter, flow cytometry | peptide | concentration not given, HLA-A*02:01 NY-ESO system |  | reporter activation | 0.079% |
| FGB (Homo sapiens, UniProt P02675) | BRIP1 (Homo sapiens, UniProt Q9BX63) | cross-linking MS |  | with: DSSO |  | cross-linked residues | K77 to K1235 |
| SERPINA1 (Homo sapiens, UniProt P01009) | Factor Xa mature, plasma-derived (Homo sapiens) | inhibition kinetics, amidolytic activity |  | with: heparin 0.1 µM |  | second-order inhibition rate constant | 2500 M⁻¹ s⁻¹ |
| SERPINC1 (Homo sapiens, UniProt P01008) | RBM19 (Homo sapiens, UniProt Q9Y4C8) | cross-linking MS |  | with: DSSO |  | cross-linked residues | K171 to K382 |
| GLAQWISHV | Jurkat T cells expressing 1G4 TCR | NFAT-eGFP reporter, fluorescence microscopy | peptide | concentration not given, HLA-A*02:01 NY-ESO system |  | reporter activation | 0.00823% |
| alpha-MSH mature (UniProt P01189) | Mc1r (Mus musculus, UniProt Q01727) | cAMP production, agonist, BRET EPAC sensor | HEK293 | 3 min |  | EC50 | 4.8 nM |
| ORC6 (Saccharomyces cerevisiae, UniProt P38826) | TAH11 (Saccharomyces cerevisiae, UniProt P47112) | cross-linking MS |  | hits only |  | interaction screen | cross-linked |
| KNG1 high molecular weight kininogen (Homo sapiens) | prekallikrein zymogen (Homo sapiens) | clotting time | FXI-deficient plasma | 670 nM, without 3E8 |  | APTT | 231 s |
| B2 (PI4KB Q121R) | RAB11A (Homo sapiens, UniProt P62491) | co-IP | HEK-293T |  | reference: wild type, higher = more binding | relative binding | 6.7 fold |
| B3 (Fhl2) | Mitf (Mus musculus, UniProt Q08874) | co-IP | mouse heart lysates | endogenous | reference: saline-treated mice, higher = more interaction | relative co-IP signal | 5 fold |
| CGAACGAACGAA (dsDNA) | Fibroin-modulator-binding protein-1 99-193 (Bombyx mori, UniProt Q5FBS0) | ITC | double-stranded DNA, one strand shown |  |  | Kd | 9030 ± 968 nM |

Repeated from above:
| Molecule | tested on | test | test system | setting | scale | endpoint | value |
| --- | --- | --- | --- | --- | --- | --- | --- |
| FGA (Homo sapiens, UniProt P02671) | NKIRAS2 (Homo sapiens, UniProt Q9NYR9) | cross-linking MS |  | with: DSSO |  | cross-linked residues | K476 to K106 |
| KERTHQQKKHSSYEDELSEVL (CHGA residues 70-90 (Bos taurus)) | PLAT mature, single-chain, DFP-inactivated (Homo sapiens) | radioligand binding | peptide | with: 100 µM peptide | reference: 125I-CgA binding without inhibitor, higher = stronger inhibition | inhibition of binding | 82% |
